Measured values gathered from unrelated publications.
“And” joins repeats or separate records; there may be more than shown. ± gives the spread as reported.
NR4A1: Nuclear receptor subfamily 4 group A member 1 (NR4A1, Homo sapiens, UniProt P22736)
Chain of UniProt P22736 (whole entry, looked up): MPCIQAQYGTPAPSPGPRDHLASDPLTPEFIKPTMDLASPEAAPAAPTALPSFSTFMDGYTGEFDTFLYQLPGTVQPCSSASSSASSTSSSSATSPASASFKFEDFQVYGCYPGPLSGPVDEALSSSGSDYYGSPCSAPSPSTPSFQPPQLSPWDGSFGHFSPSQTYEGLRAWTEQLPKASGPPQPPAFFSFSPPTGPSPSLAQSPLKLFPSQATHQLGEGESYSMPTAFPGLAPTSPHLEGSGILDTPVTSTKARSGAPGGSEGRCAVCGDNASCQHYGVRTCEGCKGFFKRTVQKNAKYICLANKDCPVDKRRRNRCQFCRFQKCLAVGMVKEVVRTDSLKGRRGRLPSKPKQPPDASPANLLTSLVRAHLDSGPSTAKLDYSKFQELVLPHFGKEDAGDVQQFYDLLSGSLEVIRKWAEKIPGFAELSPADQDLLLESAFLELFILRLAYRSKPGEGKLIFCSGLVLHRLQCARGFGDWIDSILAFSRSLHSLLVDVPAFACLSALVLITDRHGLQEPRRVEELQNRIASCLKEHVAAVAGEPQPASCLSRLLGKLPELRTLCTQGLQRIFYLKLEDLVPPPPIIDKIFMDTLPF
T1: ssDNA, single strand; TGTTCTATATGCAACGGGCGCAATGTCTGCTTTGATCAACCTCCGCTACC
T2: ssDNA, aptamer; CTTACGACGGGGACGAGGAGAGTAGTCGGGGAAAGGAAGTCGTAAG
Chain of UniProt Q8NER1 (whole entry, looked up): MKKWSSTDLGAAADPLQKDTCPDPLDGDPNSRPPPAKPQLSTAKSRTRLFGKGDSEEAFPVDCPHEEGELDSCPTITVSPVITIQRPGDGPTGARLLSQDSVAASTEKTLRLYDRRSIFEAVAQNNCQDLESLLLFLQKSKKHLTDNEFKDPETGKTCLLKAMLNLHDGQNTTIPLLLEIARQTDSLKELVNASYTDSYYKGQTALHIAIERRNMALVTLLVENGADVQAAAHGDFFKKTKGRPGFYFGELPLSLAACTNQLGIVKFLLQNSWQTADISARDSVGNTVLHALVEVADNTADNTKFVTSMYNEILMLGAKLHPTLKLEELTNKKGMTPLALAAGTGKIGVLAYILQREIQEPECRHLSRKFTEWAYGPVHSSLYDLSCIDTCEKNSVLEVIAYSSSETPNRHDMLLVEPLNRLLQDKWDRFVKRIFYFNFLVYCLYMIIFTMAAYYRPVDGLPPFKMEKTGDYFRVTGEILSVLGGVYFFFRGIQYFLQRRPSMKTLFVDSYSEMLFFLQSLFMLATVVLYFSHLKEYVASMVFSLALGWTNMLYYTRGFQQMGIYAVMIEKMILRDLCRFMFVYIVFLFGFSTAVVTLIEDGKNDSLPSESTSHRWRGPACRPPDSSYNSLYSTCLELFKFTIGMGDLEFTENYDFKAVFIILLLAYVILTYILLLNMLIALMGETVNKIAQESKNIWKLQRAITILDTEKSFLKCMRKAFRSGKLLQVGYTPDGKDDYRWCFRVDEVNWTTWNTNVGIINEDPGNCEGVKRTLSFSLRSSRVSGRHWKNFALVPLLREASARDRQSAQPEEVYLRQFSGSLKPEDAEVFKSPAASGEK
Chain of UniProt P11388 (whole entry, looked up): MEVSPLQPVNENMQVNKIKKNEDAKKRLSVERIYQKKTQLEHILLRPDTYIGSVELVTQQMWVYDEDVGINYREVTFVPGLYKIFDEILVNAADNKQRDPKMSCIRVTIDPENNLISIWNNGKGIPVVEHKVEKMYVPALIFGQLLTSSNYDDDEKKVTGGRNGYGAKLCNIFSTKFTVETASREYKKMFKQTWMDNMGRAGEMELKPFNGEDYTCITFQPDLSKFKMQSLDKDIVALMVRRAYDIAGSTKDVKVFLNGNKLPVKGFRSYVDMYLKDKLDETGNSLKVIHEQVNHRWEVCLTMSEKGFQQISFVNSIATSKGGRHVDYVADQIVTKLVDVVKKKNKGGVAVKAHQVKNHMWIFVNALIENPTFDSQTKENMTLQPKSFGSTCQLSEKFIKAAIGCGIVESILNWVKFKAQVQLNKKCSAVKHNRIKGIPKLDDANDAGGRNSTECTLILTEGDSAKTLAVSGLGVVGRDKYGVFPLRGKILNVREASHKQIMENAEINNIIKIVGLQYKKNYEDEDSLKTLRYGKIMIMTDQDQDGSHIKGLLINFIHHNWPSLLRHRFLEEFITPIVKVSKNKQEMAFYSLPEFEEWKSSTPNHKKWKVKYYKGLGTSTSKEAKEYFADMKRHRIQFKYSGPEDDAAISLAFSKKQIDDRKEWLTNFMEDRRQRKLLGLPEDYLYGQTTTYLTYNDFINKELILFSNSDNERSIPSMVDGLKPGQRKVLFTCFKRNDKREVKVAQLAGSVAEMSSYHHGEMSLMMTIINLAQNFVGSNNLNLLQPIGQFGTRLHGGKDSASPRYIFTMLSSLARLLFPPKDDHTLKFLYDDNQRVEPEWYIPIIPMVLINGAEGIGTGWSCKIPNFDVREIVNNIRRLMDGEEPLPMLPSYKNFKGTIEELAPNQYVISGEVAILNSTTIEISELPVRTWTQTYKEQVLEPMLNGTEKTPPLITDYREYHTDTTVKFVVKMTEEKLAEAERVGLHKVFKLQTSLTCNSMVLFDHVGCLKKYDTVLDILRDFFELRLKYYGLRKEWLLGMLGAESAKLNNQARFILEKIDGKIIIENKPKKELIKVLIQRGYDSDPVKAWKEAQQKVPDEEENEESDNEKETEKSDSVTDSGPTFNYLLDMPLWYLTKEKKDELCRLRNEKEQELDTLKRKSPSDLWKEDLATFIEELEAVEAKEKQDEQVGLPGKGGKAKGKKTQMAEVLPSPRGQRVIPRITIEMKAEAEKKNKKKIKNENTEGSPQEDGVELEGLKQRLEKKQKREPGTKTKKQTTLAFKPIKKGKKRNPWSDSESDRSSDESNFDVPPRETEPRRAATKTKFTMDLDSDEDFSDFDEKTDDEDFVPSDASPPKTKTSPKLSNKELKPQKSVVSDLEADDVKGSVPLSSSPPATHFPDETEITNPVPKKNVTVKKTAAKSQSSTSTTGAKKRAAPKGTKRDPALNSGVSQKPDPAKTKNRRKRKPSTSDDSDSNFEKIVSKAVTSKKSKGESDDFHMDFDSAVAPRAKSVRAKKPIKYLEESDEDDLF
Chain of UniProt Q96EB6 (whole entry, looked up): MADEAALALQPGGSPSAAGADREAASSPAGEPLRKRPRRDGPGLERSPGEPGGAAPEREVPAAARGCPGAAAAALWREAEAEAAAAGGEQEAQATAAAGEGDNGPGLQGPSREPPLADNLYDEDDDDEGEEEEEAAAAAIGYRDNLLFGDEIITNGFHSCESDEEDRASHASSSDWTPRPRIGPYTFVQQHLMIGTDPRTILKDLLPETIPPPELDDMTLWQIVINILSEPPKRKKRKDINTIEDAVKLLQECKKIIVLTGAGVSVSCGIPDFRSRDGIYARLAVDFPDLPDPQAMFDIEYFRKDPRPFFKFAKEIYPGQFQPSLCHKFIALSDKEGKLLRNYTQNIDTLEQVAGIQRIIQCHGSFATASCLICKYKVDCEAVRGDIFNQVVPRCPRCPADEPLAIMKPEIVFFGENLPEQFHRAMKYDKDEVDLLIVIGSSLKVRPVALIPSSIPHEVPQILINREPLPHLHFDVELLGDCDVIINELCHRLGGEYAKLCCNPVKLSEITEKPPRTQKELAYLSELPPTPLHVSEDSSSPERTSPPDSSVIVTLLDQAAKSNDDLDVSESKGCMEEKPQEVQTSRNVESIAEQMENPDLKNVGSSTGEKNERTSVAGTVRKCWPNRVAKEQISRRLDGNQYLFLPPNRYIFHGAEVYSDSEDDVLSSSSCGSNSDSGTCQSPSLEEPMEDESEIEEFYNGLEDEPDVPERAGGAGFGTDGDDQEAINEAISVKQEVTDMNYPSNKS
Chain of UniProt P05164 (whole entry, looked up): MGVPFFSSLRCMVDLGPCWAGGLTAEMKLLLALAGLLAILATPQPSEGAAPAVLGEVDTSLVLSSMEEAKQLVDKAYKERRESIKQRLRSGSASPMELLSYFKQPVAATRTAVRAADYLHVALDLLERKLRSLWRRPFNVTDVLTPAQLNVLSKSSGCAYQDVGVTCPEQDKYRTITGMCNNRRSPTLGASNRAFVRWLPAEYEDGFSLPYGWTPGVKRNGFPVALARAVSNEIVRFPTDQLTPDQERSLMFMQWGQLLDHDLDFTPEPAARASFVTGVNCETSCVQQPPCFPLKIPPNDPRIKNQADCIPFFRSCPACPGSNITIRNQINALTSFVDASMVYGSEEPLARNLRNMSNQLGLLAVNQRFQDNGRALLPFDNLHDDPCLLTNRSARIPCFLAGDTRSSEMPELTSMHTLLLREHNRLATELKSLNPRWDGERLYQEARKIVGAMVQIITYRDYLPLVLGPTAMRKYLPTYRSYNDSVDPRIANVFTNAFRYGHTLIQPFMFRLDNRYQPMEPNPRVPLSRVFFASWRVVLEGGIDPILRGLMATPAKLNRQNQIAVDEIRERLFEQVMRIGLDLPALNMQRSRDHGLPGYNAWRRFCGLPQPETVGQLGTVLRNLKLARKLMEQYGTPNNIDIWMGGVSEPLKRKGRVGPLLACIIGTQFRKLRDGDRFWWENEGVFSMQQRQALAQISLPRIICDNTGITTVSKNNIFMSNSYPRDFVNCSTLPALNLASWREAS
Chain of UniProt O15264 (whole entry, looked up): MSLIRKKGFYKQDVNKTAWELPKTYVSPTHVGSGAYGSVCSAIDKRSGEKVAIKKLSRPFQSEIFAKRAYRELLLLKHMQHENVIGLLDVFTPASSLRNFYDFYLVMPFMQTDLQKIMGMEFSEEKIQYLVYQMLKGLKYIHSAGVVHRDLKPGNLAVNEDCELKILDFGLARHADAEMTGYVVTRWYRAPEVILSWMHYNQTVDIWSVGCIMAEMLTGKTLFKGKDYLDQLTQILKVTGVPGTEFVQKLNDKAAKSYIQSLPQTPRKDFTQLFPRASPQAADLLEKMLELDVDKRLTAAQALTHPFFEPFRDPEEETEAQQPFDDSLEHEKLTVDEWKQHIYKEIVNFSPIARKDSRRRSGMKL
Chain of UniProt P00441 (whole entry, unmodified, looked up): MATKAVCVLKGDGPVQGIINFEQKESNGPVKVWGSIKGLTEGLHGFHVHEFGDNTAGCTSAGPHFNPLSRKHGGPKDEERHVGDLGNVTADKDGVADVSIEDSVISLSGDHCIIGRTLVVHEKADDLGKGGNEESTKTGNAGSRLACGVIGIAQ

The remaining binding of NS(=O)(=O)c1ccc(Nc2nc(-c3ccc(F)cc3)c3ccccc3n2)cc1 is reported as 72% (Protein polybromo-1, bromodomain 2 (PBRM1, Homo sapiens, UniProt Q86U86); bromodomain binding, BROMOscan; 1000 nM; baseline: DMSO control).
Nc1ncnc2c1ncn2[C@@H]1O[C@H](COP(=O)(O)OP(=O)(O)OP(=O)(O)O)[C@@H](O)[C@H]1O gave a kcat of 1.3 ± 0.6 s⁻¹ (CKMT1A (Homo sapiens, UniProt P12532, H99K); substrate, ADP-Glo luminescence; pH 8.5, forward reaction, H61K mutant, with: second substrate in excess).
For Cn1nc(Nc2ccc3c(c2)CN(C2CCC(=O)NC2=O)C3=O)c2ccccc21 (stereo not shown), “degradation rate constant” read 1.9 h⁻¹ (Cereblon/Casein kinase I alpha (CSNK1A1/CRBN, Homo sapiens, UniProt P48729+Q96SW2); degrader, live-cell HiBiT kinetic; HEK293 LgBiT; 10 µM).
Under ATG14L-Beclin1 interaction, CCCN1C(=O)COc2ccc(NS(=O)(=O)c3c(C(C)C)cc(C(C)C)cc3C(C)C)cc21 is recorded as “active” (Beclin 1-associated autophagy-related key regulator, with Beclin 1 (ATG14, Homo sapiens, UniProt Q6ZNE5); NanoBRET; 100 µM; baseline: DMSO).
C[C@H]1O[C@@H](O[C@H]2CC[C@@]3(C)[C@@H](CC[C@]4(C)[C@@H]3C=CC3=C5CC(C)(C)CC[C@]5(CO)[C@@H](O)C[C@]34C)[C@]2(C)CO)[C@H](O)[C@@H](O[C@@H]2O[C@H](CO)[C@@H](O)[C@H](O)[C@H]2O)[C@H]1O: “MST normalised fluorescence” 884 a.u. (SIRT1 (Homo sapiens, UniProt Q96EB6); binding, microscale thermophoresis; 173 nM).
CC1=C(/C=C/C(C)=C/C=C/C(C)=C/C=O)C(C)(C)CCC1 has a relative kon of 0.466 ± 0.074 (Rhodopsin, F273A/S144C (RHO, Bos taurus, UniProt P02699, F273A/S144F); retinal entry, Alexa488 FRET; lipid bicelles; 28 °C, F273A mutant; baseline: wild-type rhodopsin).
The remaining binding of C=CC(=O)N1CCC(COCC(=O)N2CCN(c3nc(-c4cnc(N)nc4C(F)F)nc(N4CCOC[C@@H]4C)n3)CC2)CC1 is reported as 96% (Tyrosine-protein kinase ABL1, non-phosphorylated (ABL1, Homo sapiens, UniProt P00519, Q252H); KINOMEscan; 1 µM).
NC/C(=C\F)COc1cccc(Cn2c(=S)[nH]c(=O)c3[nH]cnc32)c1 gave an H2O2 concentration of -36.1 µM (Myeloperoxidase (MPO, Homo sapiens, UniProt P05164); H2O2 consumption, inhibitor, H2O2 electrode; 0.25 µM, 0 s).
N#Cc1ccc2c(-c3ccncc3)c(-c3ccc(F)cc3)nn2c1: “log2 fold change” -0.195 (Mitogen-activated protein kinase HOG1 (HOG1, Candida albicans, UniProt Q92207); MIB/MS competition binding; Candida albicans cell lysate; 100 nM; baseline: DMSO, lower = stronger binding).
COc1cccc2c1C(=O)c1c(O)c3c(c(O)c1C2=O)C[C@@](O)(C(=O)CO)C[C@@H]3O[C@H]1C[C@H](N)[C@H](O)[C@H](C)O1 — result for binding: “binds” (T1, ssDNA, single strand; DLS, TEM; qualitative).
CCCCCCCC(=O)c1c(O)cc(O)cc1CC(=O)OCC gave an activation of 0.87 fold (NR4A1; reporter gene, Gal4 hybrid reporter; 10 µM; baseline: vehicle).
COc1cc(CNC(=O)CCCC/C=C/C(C)C)ccc1O has a calcium response of -0.645 a.u. and 3.15 a.u. and 0.807 a.u. and -0.528 a.u. (TRPV1 (Homo sapiens, UniProt Q8NER1); channel activation, FLIPR calcium; HEK293T; 0.00305 µM; higher = more activation).
For O=C(CN(Cc1ccccc1)S(=O)(=O)c1ccc(F)cc1)Nc1cccc(Cl)c1Cl, the delta Tm was 6.8 °C (Sodium channel protein type 8 subunit alpha, C-terminal domain (SCN8A, Homo sapiens, UniProt Q9UQD0); binding, protein thermal shift; 25 µM).
With COc1ccc(Cc2nnc(NS(=O)(=O)c3ccccc3)s2)cc1 the Kii was 376 ± 50 µM (Glutathione hydrolase 1 proenzyme, without transmembrane domain (Homo sapiens, UniProt P19440); GSH hydrolysis, uncompetitive inhibitor; 37 °C, binds gamma-glutamyl enzyme, with: GSH 5-20 µM).
With COc1cccc(OC[C@H]2CN(CCN3CCc4ccccc43)CCO2)c1 the inhibition was -8.5% (HTR5A (Homo sapiens, UniProt P47898); radioligand binding; concentration not given, with: [3H]LSD).
Nc1nc2c(ncn2[C@@H]2O[C@H](COP(=O)(O)O)[C@@H](O)[C@H]2O)c(=O)[nH]1 gave a -TΔS of 3.1 kcal/mol (GUK1 (Homo sapiens, UniProt Q16774, D103A); binding, ITC; with: GMP).
CCN1CCN(c2cc(N3CCN(CC)CC3)nc(NCCNc3ccnc4cc(Cl)ccc34)n2)CC1 gave an activation of 1.43 fold (NR4A1; reporter gene, NBRE reporter full-length; 20 µM; baseline: vehicle).
Under “log2 fold change”, Oc1ccccc1-c1n[nH]cc1-c1ccnc2ccccc12 is recorded as 0.04 (Serine/threonine-protein kinase SCH9 (SCH9, Candida albicans, UniProt Q5AHG6); kinase binding, MIB/MS competition; Candida albicans lysate; 1 µM; baseline: DMSO, negative = stronger binding).
For S=c1[nH]nc(-c2ccccn2)o1, the fluorescence increase was 77.2 ± 1.67% (P2X purinoceptor 2 (P2RX2, Homo sapiens, UniProt Q9UBL9); calcium mobilization; MCF7 stably transfected; 100 µM, with: ATP 100 µM).
The Emax of CCCC[C@@H]1NC(=O)[C@H](Cc2ccc(O)cc2)NC(=O)[C@@H]2CCCN2C(=O)[C@H](CC(=O)O)NC(=O)[C@H](C)NC(=O)[C@H](Cc2ccccc2)NC(=O)[C@@H]2CSCCC(=O)N3CN(CN(C3)C(=O)CCSC[C@@H](C(N)=O)NC1=O)C(=O)CCSCCC(=O)N[C@@H](CC(C)(C)C)C(=O)N1CCC[C@H]1C(=O)N[C@@H](CCC(=O)O)C(=O)N[C@H](CCCCNC(=O)CCc1cn(CCOCCOCCOCCOCCOCCC(=O)N[C@H]3CSCCC(=O)N4CN5CN(C4)C(=O)CCSC[C@H](NC(=O)[C@@H](CC(=O)O)NC(=O)[C@H](Cc4cccc6ccccc46)NC(=O)[C@@H]4CCCN4C3=O)C(=O)N[C@@H](CCSC)C(=O)N[C@@H](CCCCNC(=N)N)C(=O)N[C@@H](CC(=O)O)C(=O)N[C@@H](Cc3c[nH]c4ccccc34)C(=O)N[C@@H](CO)C(=O)N[C@@H]([C@@H](C)O)C(=O)N3CCC[C@H]3C(=O)N3C[C@H](O)C[C@H]3C(=O)N[C@@H](Cc3c[nH]c4ccccc34)C(=O)N[C@H](C(N)=O)CSCCC5=O)nn1)C(=O)N1CCC[C@H]1C(=O)N[C@@H](Cc1ccc(O)cc1)C(=O)N2 is reported as 39 fold (Tumor necrosis factor receptor superfamily member 9/Nectin-4 (Homo sapiens, UniProt Q07011+Q96NY8); reporter gene, agonist; HT-1376 coculture with reporter cells; baseline: background).
With N=C(N)NCCC[C@H](N)C(=O)O the Ka was 9.49e+09 M⁻¹ and 2.48e+10 M⁻¹ and 1.24e+10 M⁻¹ and 1.5e+10 M⁻¹ (uncharacterized protein (Pelagibacter ubique, UniProt Q4FLC2); isothermal titration calorimetry; Candidatus Pelagibacter ubique; displacement titration, with: octopine competitor 1 mM).
For Nc1ncnc2c1ncn2[C@@H]1O[C@H](COP(=O)(O)OP(=O)(O)OP(=O)(O)O)[C@@H](O)[C@H]1O, “translocation rate constant” read 96 ± 12 s⁻¹ (DNA-directed RNA polymerase subunit beta' / DNA-directed RNA polymerase subunit beta (rpoC/rpoB, Escherichia coli, UniProt P0A8T7+P0A8V2); stopped-flow 2-aminopurine fluorescence; elongation complex i+2→i+1).
The Kd of Nc1ncnc2c1ncn2[C@@H]1O[C@H](COP(=O)(O)OP(=O)(O)O)[C@@H](O)[C@H]1O is reported as 15.8 µM (T2, ssDNA, aptamer; ITC).
With CC(=O)N[C@H](C(=O)N1C[C@H](O)C[C@H]1C(=O)NCc1ccc(-c2scnc2C)cc1)C(C)(C)SCCCCCCNC(=O)C[C@@H]1N=C(c2ccc(Cl)cc2)c2c(sc(C)c2C)-n2c(C)nnc21 the ΔH was -4.38 ± 0.03 kcal/mol (VHL/BRD3, BD1; with Elongin B/C (Homo sapiens, UniProt P40337+Q15059); ternary complex binding, ITC; 25 °C, with: VHL-ElonginB-ElonginC titrated into compound:PROTAC:Brd3^BD1 complex).
[O-][S+]1CCCCS1 (stereo not shown): “SOD1 monomer fraction” 99% (SOD1 (Homo sapiens, UniProt P00441, G94A); LC-MS; human whole blood; 10 µM, 1 h, 37 °C).
For CC1CCCN(C(=O)c2cc3ncccn3n2)C1 (stereo not shown), the fold enrichment was 0.68 (ATP-dependent RNA helicase DDX1 (Homo sapiens, UniProt Q92499); binding, affinity selection mass spectrometry; baseline: other proteins in batch).
For Cc1cc(C)nc(NC(=S)N2CCN(Cc3ccc(C(F)(F)F)cc3)CC2)c1, kinase activity read “no effect” (MAPK13 (Homo sapiens, UniProt O15264); inhibitor, ADP-Glo; concentration not given).
O=c1nc(SCc2cc(F)cc(C(F)(F)F)c2)nc(SCc2ccc3sccc3c2)[nH]1: “ATP hydrolysis rate” 0.653 µM/min and 0.757 µM/min (TOP2A (Homo sapiens, UniProt P11388); ATPase activity; 15.6 µM, with: ATP 1 mM).

For quick reference, copied from above:
CC1=C(/C=C/C(C)=C/C=C/C(C)=C/C=O)C(C)(C)CCC1 has a relative kon of 0.466 ± 0.074 (Rhodopsin, F273A/S144C (RHO, Bos taurus, UniProt P02699, F273A/S144F); retinal entry, Alexa488 FRET; lipid bicelles; 28 °C, F273A mutant; baseline: wild-type rhodopsin).
With COc1ccc(Cc2nnc(NS(=O)(=O)c3ccccc3)s2)cc1 the Kii was 376 ± 50 µM (Glutathione hydrolase 1 proenzyme, without transmembrane domain (Homo sapiens, UniProt P19440); GSH hydrolysis, uncompetitive inhibitor; 37 °C, binds gamma-glutamyl enzyme, with: GSH 5-20 µM).
CCCCCCCC(=O)c1c(O)cc(O)cc1CC(=O)OCC gave an activation of 0.87 fold (NR4A1; reporter gene, Gal4 hybrid reporter; 10 µM; baseline: vehicle).
